Results collected from several papers.
Parts stem from different laboratories: compare values within a part only. ± marks the error that the study gave.
Chain of UniProt P28887 (whole entry, looked up): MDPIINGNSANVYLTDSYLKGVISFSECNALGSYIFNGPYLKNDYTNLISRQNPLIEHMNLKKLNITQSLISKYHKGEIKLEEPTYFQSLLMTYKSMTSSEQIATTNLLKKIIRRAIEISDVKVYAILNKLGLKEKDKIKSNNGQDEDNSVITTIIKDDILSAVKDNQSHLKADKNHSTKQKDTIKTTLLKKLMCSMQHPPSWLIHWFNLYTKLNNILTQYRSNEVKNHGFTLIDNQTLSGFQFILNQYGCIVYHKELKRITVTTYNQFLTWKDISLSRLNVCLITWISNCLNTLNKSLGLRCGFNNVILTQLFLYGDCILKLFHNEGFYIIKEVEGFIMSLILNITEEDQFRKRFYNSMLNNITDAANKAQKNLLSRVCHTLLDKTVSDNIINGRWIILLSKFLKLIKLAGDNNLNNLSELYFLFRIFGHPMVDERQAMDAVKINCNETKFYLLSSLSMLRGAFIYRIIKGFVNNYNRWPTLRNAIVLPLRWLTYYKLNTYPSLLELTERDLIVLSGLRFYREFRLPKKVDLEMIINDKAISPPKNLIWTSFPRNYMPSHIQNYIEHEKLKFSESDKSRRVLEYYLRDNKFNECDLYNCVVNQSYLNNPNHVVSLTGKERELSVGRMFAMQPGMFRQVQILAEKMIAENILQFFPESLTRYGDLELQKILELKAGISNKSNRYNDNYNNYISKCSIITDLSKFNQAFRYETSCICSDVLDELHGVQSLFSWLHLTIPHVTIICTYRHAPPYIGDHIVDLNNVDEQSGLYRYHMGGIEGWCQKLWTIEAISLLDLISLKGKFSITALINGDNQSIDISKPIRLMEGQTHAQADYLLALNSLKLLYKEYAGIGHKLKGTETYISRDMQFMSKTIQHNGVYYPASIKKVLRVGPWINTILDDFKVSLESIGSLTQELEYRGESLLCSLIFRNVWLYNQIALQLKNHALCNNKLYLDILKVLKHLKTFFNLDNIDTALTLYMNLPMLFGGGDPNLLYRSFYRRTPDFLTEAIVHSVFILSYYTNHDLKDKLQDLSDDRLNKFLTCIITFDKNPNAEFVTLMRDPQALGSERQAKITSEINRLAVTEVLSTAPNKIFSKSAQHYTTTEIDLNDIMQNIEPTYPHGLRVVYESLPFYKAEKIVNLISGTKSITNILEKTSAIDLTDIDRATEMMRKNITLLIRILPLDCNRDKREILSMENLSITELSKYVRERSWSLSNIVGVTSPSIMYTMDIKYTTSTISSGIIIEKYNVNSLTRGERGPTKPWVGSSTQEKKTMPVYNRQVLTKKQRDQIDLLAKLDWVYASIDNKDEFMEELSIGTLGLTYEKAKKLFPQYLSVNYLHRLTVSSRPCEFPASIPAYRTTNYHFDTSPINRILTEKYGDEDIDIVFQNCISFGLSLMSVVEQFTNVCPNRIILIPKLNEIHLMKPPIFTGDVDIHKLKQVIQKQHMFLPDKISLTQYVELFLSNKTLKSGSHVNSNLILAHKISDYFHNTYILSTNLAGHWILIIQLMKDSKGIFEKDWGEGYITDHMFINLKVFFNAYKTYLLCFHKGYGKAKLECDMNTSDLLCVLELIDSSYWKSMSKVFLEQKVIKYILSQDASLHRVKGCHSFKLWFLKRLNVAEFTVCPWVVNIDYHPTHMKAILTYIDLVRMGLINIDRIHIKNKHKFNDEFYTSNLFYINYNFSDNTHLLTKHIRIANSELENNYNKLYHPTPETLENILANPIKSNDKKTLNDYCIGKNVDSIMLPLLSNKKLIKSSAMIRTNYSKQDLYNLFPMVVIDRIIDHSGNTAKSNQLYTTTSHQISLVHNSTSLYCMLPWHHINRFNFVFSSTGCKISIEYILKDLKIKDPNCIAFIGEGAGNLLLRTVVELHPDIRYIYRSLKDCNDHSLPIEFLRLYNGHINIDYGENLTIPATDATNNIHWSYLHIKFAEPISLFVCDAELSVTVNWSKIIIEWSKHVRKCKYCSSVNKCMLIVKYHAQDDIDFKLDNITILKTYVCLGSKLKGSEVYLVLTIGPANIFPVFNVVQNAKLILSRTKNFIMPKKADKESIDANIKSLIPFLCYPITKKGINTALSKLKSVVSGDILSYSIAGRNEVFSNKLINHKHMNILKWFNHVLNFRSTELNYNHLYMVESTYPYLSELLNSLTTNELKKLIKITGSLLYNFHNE
Chain of UniProt P10275 (whole entry, looked up): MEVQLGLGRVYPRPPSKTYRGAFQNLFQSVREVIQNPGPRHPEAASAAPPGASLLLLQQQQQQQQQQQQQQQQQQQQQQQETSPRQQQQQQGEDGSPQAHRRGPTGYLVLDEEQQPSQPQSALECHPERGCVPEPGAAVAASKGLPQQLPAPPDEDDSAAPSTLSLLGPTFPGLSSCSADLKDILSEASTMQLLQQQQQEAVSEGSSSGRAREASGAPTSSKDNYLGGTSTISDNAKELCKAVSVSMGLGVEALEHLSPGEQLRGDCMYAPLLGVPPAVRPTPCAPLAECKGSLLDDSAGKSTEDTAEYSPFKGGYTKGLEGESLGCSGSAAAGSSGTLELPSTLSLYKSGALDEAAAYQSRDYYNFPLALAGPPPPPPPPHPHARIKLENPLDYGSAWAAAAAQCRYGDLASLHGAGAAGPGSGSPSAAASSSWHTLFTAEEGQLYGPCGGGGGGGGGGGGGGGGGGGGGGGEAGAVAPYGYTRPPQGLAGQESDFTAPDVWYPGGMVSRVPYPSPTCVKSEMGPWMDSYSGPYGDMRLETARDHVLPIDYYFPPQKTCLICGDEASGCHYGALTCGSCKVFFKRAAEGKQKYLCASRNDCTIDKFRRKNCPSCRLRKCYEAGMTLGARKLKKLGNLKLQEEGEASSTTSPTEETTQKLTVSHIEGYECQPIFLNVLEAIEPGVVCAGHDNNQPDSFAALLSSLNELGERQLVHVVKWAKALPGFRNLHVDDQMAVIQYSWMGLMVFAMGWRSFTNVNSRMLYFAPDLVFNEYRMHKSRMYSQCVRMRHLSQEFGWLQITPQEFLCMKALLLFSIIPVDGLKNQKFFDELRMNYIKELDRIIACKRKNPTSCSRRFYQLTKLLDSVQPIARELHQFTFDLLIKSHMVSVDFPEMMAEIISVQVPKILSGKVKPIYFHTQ

Study 1 — effect on: enzyme activity; action: inhibitor
Target: Phosphatidylinositol 3,4,5-trisphosphate 5-phosphatase 2, phosphatase-C2 domains (INPPL1, Homo sapiens, UniProt O15357)
Chain of UniProt O15357 (whole entry, looked up): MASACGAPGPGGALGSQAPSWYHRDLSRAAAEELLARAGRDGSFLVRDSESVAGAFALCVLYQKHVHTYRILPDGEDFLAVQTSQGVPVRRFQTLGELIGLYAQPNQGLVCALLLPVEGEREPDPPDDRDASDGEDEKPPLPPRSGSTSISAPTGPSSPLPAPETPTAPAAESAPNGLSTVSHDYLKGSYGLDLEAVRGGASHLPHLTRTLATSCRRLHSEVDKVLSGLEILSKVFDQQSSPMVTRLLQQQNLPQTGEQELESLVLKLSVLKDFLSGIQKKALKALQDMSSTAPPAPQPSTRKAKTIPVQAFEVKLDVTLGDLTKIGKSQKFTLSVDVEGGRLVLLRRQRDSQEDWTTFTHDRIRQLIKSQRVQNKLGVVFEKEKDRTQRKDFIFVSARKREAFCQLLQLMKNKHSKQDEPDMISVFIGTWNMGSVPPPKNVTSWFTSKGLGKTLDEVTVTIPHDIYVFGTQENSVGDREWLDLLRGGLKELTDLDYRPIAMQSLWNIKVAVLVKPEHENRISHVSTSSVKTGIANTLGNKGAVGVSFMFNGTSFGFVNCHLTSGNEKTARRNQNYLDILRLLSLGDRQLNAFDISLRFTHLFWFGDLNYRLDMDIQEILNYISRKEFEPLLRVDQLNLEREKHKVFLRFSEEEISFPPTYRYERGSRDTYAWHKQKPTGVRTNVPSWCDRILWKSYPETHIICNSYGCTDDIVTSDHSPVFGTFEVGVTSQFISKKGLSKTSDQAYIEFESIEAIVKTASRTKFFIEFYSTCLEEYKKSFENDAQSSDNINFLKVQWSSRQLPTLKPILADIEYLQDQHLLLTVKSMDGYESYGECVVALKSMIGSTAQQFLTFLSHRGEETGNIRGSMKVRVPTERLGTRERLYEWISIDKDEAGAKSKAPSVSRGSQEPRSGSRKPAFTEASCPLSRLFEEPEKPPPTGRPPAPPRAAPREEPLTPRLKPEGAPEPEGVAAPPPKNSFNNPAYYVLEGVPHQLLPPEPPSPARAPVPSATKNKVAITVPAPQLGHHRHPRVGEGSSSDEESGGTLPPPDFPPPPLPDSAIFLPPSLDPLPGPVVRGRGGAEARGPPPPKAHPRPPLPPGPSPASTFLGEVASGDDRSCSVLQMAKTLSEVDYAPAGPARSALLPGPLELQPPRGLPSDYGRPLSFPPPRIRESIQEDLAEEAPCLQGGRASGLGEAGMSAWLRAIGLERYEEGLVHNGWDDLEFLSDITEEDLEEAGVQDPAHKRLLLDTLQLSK
| SMILES | IC50 [µM] |
| --- | --- |
| CC[C@H]1CC[C@H]2[C@@H]3C[C@@H](O)[C@@]4(O)C[C@H](N)CC[C@]4(C)[C@H]3CC[C@]12C | 151 |
| N#Cc1nccc(N2CCNCC2)n1 | 400 |
| O=C(Cc1c(F)cccc1F)Nc1cc(OCc2ccc(Cl)cc2)ccn1 | > 900 |
| Cc1oc(-c2ccccc2Cl)nc1Cn1cccc1C1=N[C@@H](c2ccccc2)CO1 | 166 |
| CSc1ccc2c(c1)c(CCN)c(C)n2Cc1ccc(Cl)cc1 | > 500 |
| C[C@@H](Oc1cncc(-c2cnc(N)nc2)c1)c1c(Cl)ccc(F)c1Cl | > 800 |
| C=CC(=O)c1nc(C#N)ccc1N1CCCOCC1 | > 800 |

Single results of other studies
CDK9 with cyclin K: Cyclin-dependent kinase 9, with cyclin K (CDK9, Homo sapiens, UniProt P50750)
Chain of UniProt P50750 (whole entry, looked up): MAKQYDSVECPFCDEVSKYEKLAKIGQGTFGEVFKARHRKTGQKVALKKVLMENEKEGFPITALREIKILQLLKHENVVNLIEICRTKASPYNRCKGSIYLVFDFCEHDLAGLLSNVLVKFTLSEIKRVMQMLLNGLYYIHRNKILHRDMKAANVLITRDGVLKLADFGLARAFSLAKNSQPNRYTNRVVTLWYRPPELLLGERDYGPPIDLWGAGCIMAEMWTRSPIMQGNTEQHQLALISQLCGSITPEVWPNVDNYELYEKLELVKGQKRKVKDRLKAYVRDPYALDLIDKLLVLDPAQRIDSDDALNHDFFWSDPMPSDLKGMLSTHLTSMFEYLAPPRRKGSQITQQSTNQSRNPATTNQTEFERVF
| SMILES | tested on | assay | test system | conditions | quantity | value |
| --- | --- | --- | --- | --- | --- | --- |
| CC(=O)N[C@@H](Cc1ccc(OP(=O)(O)O)cc1)C(=O)N[C@H](C(=O)N1CCC[C@H]1C(=O)N1C[C@@H]2[C@@H](C(=O)O)[C@@H]2[C@H]1C(=O)N1CCC[C@H]1C(N)=O)[C@@H](C)O | E3 ubiquitin-protein ligase CBL, TKB domain (CBL, Homo sapiens, UniProt P22681) | – | – | – | Ki | 15.2 µM |
| O=c1cc(-c2ccc(O)cc2)oc2c1ccc1occc12 | CDK9 with cyclin K | inhibitor | – | – | IC50 | 1.86 ± 0.46 µM |
| O=C(N/N=C/c1cccc(O)c1O)c1cc2ccccc2cc1O | Androgen receptor (AR, Homo sapiens, UniProt P10275) | inhibitor | – | – | IC50 | 50 to 100 µM |
| COCCCNC(=O)c1ccc(Cn2c(=O)c3ccccc3n(Cc3ccc([N+](=O)[O-])cc3)c2=O)cc1 | RNA-directed RNA polymerase L (Human respiratory syncytial virus A, UniProt P28887) | – | – | – | EC50 | 1 µM |
| O=c1cc(-c2cccc(O)c2)oc2c1ccc1occc12 | CDK9 with cyclin K | inhibitor | – | – | IC50 | 1.99 ± 0.49 µM |
| CC1(N)CCN(c2ncc(-c3cccc(Cl)c3Cl)c(N)n2)CC1 | Tyrosine-protein phosphatase non-receptor type 11 (PTPN11, Homo sapiens, UniProt Q06124) | phosphatase activity | – | – | IC50 | 0.25 µM |
| CC[C@H](C)[C@H](NC(=O)[C@H](CO)NC(=O)[C@H](Cc1ccc(O)cc1)NC(=O)[C@H](CC(=O)O)NC(=O)[C@H](CO)NC(=O)[C@@H](NC(=O)[C@H](Cc1ccccc1)NC(=O)[C@@H](NC(=O)CNC(=O)[C@H](CCC(=O)O)NC(=O)[C@H](C)NC(=O)[C@@H](N)Cc1ccc(O)cc1)[C@@H](C)O)[C@@H](C)CC)C(=O)N[C@@H](C)C(=O)N[C@@H](CCSC)C(=O)N[C@@H](CC(=O)O)C(=O)N[C@@H](CCCCN)C(=O)N[C@H](C(=O)N[C@@H](Cc1c[nH]cn1)C(=O)N[C@@H](CCC(N)=O)C(=O)N[C@@H](CCC(N)=O)C(=O)N[C@@H](CC(=O)O)C(=O)N[C@@H](Cc1ccccc1)C(=O)N[C@H](C(=O)N[C@@H](CC(N)=O)C(=O)N[C@@H](Cc1c[nH]c2ccccc12)C(=O)N[C@@H](CC(C)C)C(=O)N[C@@H](CC(C)C)C(=O)N[C@@H](C)C(=O)N[C@@H](CCC(N)=O)C(=O)N[C@@H](CCCCN)C(=O)NCC(=O)N[C@@H](CCCCN)C(=O)N[C@@H](CCCCN)C(=O)N[C@@H](CC(N)=O)C(=O)N[C@@H](CC(=O)O)C(=O)N[C@@H](Cc1c[nH]c2ccccc12)C(=O)N[C@@H](CCCCN)C(=O)N[C@@H](Cc1c[nH]cn1)C(=O)N[C@@H](CC(N)=O)C(=O)N[C@H](C(=O)N[C@H](C(=O)N[C@@H](CCC(N)=O)C(=O)O)[C@@H](C)O)[C@@H](C)CC)C(C)C)[C@@H](C)CC | – | – | human plasma | 1 µM, pH 7.4, 37 °C, 80% pooled plasma | half-life | 35 to 45 min |

A few entries again (study 1):
| SMILES | IC50 [µM] |
| --- | --- |
| CC[C@H]1CC[C@H]2[C@@H]3C[C@@H](O)[C@@]4(O)C[C@H](N)CC[C@]4(C)[C@H]3CC[C@]12C | 151 |
